Results collected from several papers.
Protocols differ between the studies behind these lines. “And” joins repeats or separate records; there may be more than shown. ± gives the spread as reported.

SMILES | assay | system | conditions | scale | endpoint | result
C=CC(=O)Nc1cc(Nc2nccc(-c3cn(C4CC4)c4ccccc34)n2)c(OC)cc1N(C)CCNC | radio-HPLC | human male, feces | oral, 110 mg, 0 to 48 h, sample holds 45.32% dose | baseline: dose | excreted amount | 5.57%
O=C(O)c1cccc(S(=O)(=O)Nc2ccccc2)c1 |  | human, moderate liver dysfunction, plasma | intravenous, 400 mg/m^2 belinostat, cycle 1 day -7, geometric mean | baseline: metabolite over belinostat | AUC(0-inf) metabolic ratio | 0.916
COc1cc(NC(C)=O)c2c(c1O)-c1c(OC)c(OC)cc3c1C(C2)N(C)CC3 (stereo not drawn) |  | rat lung homogenate | 100 µg/mL, time not given, three freeze-thaw cycles |  | remaining compound | 98.5 ± 4.2%
O=C(OCc1cccc(O)c1O)c1ccc(O)c(CO)c1 |  | male CD-1 mouse, plasma | intravenous, 10 mg/kg, single dose |  | C0 | 54600 ng/mL
COc1cccc([O-])c1C=NCCCN(C)CCN(C)CCCN=Cc1c([O-])cccc1OC.[67Ga+3] |  | rat | intravenous, 1 min | baseline: heart over lung | tissue uptake ratio | 1 ± 0.05
NC(=O)[C@H](Cc1ccccc1)N[11C](=O)OCc1ccccc1 |  | male Wistar rats, brain supernatant | intravenous, 45 min |  | intact tracer | 96.7% and 97%
CC(=O)N[C@H](CCCCN)C(=O)N[C@H](CC(C)C)C(=O)N[C@H](CCCCN)C(=O)N[C@H](CO)C(=O)N[C@H](CC(C)C)C(=O)N[C@H](CC(C)C)C(=O)N[C@H](CCCCN)C(=O)N[C@@H](C(=O)N[C@H](CC(C)C)C(=O)N[C@H](CO)C(=O)N[C@H](CCCCN)C(=O)N[C@H](C)C(=O)N[C@H](CCCCN)C(=O)N[C@H](CCCCN)C(=O)N[C@H](CCCCN)C(=O)N[C@H](CC(C)C)C(=O)N[C@H](CC(C)C)C(=O)N[C@H](CCCCN)C(=O)N[C@@H](C(=O)N[C@H](C)C(=O)N[C@H](CC(C)C)C(=O)N[C@H](CCCCN)C(=O)N[C@H](C)C(=O)N[C@H](CC(C)C)C(=O)N[C@H](CO)C(=O)N[C@H](CCCCN)C(N)=O)[C@H](C)O)[C@H](C)O | circular dichroism | benign buffer | pH 7.0, 5 °C | baseline: 50% trifluoroethanol | helical content | 11%
[2H]C([2H])([2H])NC(=O)c1ccc(N2C(=S)N(c3ccc(C#N)c(C(F)(F)F)c3)C(=O)C2(C)C)cc1F |  | human, male | oral, 80 mg, single dose, fasted |  | Vd/F | 40.3 ± 7.93 L
CN(C)c1cc(CN2CCCCC2)c(O)c2c1C[C@H]1C[C@H]3[C@H](N(C)C)C(O)=C(C(N)=O)C(=O)[C@@]3(O)C(O)=C1C2=O |  | cynomolgus monkey, plasma | intravenous, 5 mg/kg |  | Cmax | 10100 ng/mL
NC12CNCCNCC(NCc3ccc(CNC(=O)CCCC(=O)NCc4ccc(-c5nncnn5)cc4)cc3)(CNCCNC1)CNCCNC2.[64Cu+2] | OLINDA dosimetry | gallbladder wall | pretargeting, 24-h interval |  | mean absorbed dose | 0.0393 rad/mCi
[11CH3]c1ccc2nc(C3CCC3)n(-c3ccc4[nH]ncc4c3)c2n1 | extrapolated from mouse biodistribution | standard human, drain |  |  | absorbed dose | 1.1 µSv/MBq
Cn1c(=O)oc2ccc(-c3ccc(CC(C#N)NC(=O)C4CNCCCO4)c(F)c3)cc21 (stereo not drawn) | item: alanine aminotransferase increased | human volunteers | oral |  | treatment-emergent adverse event incidence | 11.1%
O=C([O-])c1cccc(CN(CCN(Cc2cn(Cc3ccccc3)nn2)Cc2cccc(C(=O)[O-])n2)Cc2cn(Cc3ccccc3)nn2)n1.[64Cu+2] | item: 64Cu | human serum | 20 h, 37 °C |  | transchelation to serum proteins | < 2%
CC[C@H](C)[C@H](NC(=O)[C@H](CC(C)C)NC(=O)[C@H](Cc1c[nH]c2ccccc12)NC(=O)[C@H](C)NC(=O)[C@@H](NC(=O)[C@H](Cc1ccccc1)NC(=O)[C@H](CC(=O)O)NC(=O)[C@H](CCCNC(=N)N)NC(=O)[C@H](C)NC(=O)[C@H](C)NC(=O)[C@H](CC(C)C)NC(=O)[C@H](C)NC(=O)[C@H](CC(=O)O)NC(=O)[C@H](CC(C)C)NC(=O)[C@@H](NC(=O)[C@@H](NC(=O)[C@H](C)NC(=O)[C@H](CC(C)C)NC(=O)[C@H](CCC(=O)O)NC(=O)[C@H](CO)NC(=O)[C@H](CO)NC(=O)[C@H](Cc1ccccc1)NC(=O)[C@@H](NC(=O)CNC(=O)[C@H](CCC(=O)O)NC(=O)CNC(=O)[C@@H](N)Cc1cnc[nH]1)[C@@H](C)O)[C@@H](C)O)[C@@H](C)CC)[C@@H](C)CC)C(=O)N[C@@H](C)C(=O)N[C@H](C(=O)N[C@@H](CCCCN)C(=O)N[C@H](C(=O)N[C@H](C(=O)N[C@@H](CC(=O)O)C(=O)N[C@@H](CCCCN)C(=O)N[C@@H](CCCCN)C(=O)N[C@@H](CCCCN)C(=O)N[C@@H](CCCCN)C(=O)N[C@@H](CCCCN)C(=O)N[C@@H](CCCCN)C(N)=O)[C@@H](C)O)[C@@H](C)CC)[C@@H](C)O |  | healthy humans, plasma | subcutaneous, 10 mg once weekly, 6 doses, day 36, median |  | tmax | 12.1 h
O=C(NCCCN(CCCCN(CCCNC(=O)c1cccc(=O)n1[O-])C(=O)c1cccc(=O)n1[O-])C(=O)c1cccc(=O)n1[O-])c1cccc(=O)n1[O-].[89Zr+4] | radio-TLC | PBS | 1 h, pH 7.4, 37 °C, together with: K^+ 10-fold excess |  | intact complex | 99 ± 1.5%
CC[C@H](C)[C@H](NC(=O)[C@H](N)Cc1ccc(O)cc1)C(=O)N[C@H]1CSSC[C@@H](C(=O)N(C)[C@H](C(N)=O)[C@@H](C)CC)NC(=O)[C@H](CCCNC(=N)N)NC(=O)[C@H](Cc2c[nH]cn2)NC(=O)[C@H](C)NC(=O)CN(C)C(=O)[C@H](Cc2c[nH]c3ccccc23)NC(=O)[C@H](CC(=O)O)NC(=O)[C@H](CCC(N)=O)NC(=O)[C@H](Cc2cn(C)c3ccccc23)NC(=O)[C@H](C(C)C)NC1=O | UPLC-ESI-MS | cynomolgus monkey plasma | 0.36 µg/mL, 48 h, 25 °C, bench-top after SPE |  | recovery | 99.5 ± 0.3%
COc1ccc(-c2csc(N/N=C(\C)c3cc(O)cc(O)c3)n2)cc1 | LC-MS/MS | rat plasma | 3.75 ng/mL, 5 h, 25 °C, bench-top storage |  | concentration after storage | 4.09 ng/mL
[11CH3]N1CCN(CCCOc2ccc(=O)n(-c3ccc(Cl)c(Cl)c3)n2)CC1 | PET-CT | BALB/c mouse male, lung | intravenous, dose not given, 5 min |  | uptake | 6.75 ± 0.86 %ID/cc
CC(=O)N([O-])CCCCCNC(=O)CCC(=O)N([O-])CCCCCNC(=O)CCC(=O)N([O-])CCCCCN.[89Zr+4] | radio-iTLC | aqueous buffer | 3 h, pH 7.5, 37 °C, EDTA challenge, together with: 100-fold excess EDTA |  | intact complex | 95.8 ± 0.5%
Cc1nc(C)c(C=[N+]([O-])C(C)(C)C)nc1C |  | Sprague-Dawley rats both sexes, brain | oral, 45 mg/kg, 10 min |  | brain concentration | ~128 µM
NC[C@@H](C(=O)Nc1ccc(-c2cn[nH]c2)cc1)c1ccccc1 | OECD 405 eye irritation | New Zealand White rabbit, eye | topical, 0.1%, 97 h (day 5), scale 0 to 4 | direction not given | chemosis score | 0
CCCC[C@H](NC(=O)CNC(=O)CNC(=O)CN1CCN(CC(=O)O)CCN(CC(=O)O)CC1)C(=O)N[C@H]1CC(=O)NCCCC[C@@H](C(N)=O)NC(=O)[C@H](Cc2c[nH]c3ccccc23)NC(=O)[C@H](CCCNC(=N)N)NC(=O)[C@@H](Cc2ccccc2)NC(=O)[C@H](Cc2c[nH]cn2)NC1=O [gallium-67 labelled] |  | C57 mice, female, B16/F1 melanoma, tumour over blood | intravenous, 0.037 MBq, 2 h |  | tumour to tissue uptake ratio | 62.9
COC(=O)c1ccc(CCc2cc3cc4nc(c(OC)c5[nH]c(cc6nc(cc2[nH]3)CC6(C)C)cc5CCCNC(=O)OC(C)(C)C)C(=O)C4(C)C)cc1 |  | DMF | room temperature |  | kf^−1 | 16 ns
CC(C)(C)NCC(SS(=O)(=O)O)c1ccccc1 (stereo not drawn) |  | female Swiss mouse, plasma | intravenous, 15 mg/kg |  | C0 | 37200 ng/mL
O=C(O)C1CN(Cc2ccc(-c3noc(-c4ccc(OCC[18F])c(C(F)(F)F)c4)n3)cc2)C1 |  | Sprague-Dawley rat, male, normal, thymus | iv, 120 min |  | tissue uptake | 0.182 ± 0.013 %ID/g
Cc1ccc(OCC(=O)N(Cc2cccs2)c2ccn[nH]2)cc1 |  | female Sprague-Dawley rat, plasma | intravenous, 1 mg/kg, single dose |  | Tmax | 1.8 min
O=C([O-])CN1CCN(CC(=O)[O-])CCN(CC(=O)c2ccc(-c3ccc(OCC(=O)O)cc3)cc2)CCN(CC(=O)[O-])CC1.[Eu+3] |  | PBS |  |  | Eu3+ emission quantum yield | 0.075
CCCC[C@H](NC(=O)CNC(=O)CNC(=O)CN1CCN(CC(=O)O)CCN(CC(=O)O)CC1)C(=O)N[C@H]1CC(=O)NCCCC[C@@H](C(N)=O)NC(=O)[C@H](Cc2c[nH]c3ccccc23)NC(=O)[C@H](CCCNC(=N)N)NC(=O)[C@@H](Cc2ccccc2)NC(=O)[C@H](Cc2c[nH]cn2)NC1=O [copper-64 labelled] |  | female C57 mouse, B16/F1 melanoma | intravenous, 0.037 MBq, 24 h | baseline: tumour over liver | uptake ratio | 8.02
O=C(Cc1ccc2ccccc2c1)N[C@H](Cc1ccccc1)C(=O)N[C@H](Cc1ccccc1)C(=O)N[C@H](Cc1ccc(O)cc1)C(=O)N[C@H](Cc1ccc(OP(=O)(O)O)cc1)C(=O)O | substrate, rheology | hydrogel | 0.5 wt%, together with: alkaline phosphatase 0.05 U/mL |  | gelation time | 0.7 h
N=C(N)NCCC[C@@H]1NC(=O)[C@H](Cc2c[nH]c3ccccc23)NC(=O)[C@@H](CC2CCCCC2)NC(=O)[C@@H]2CCCN2C(=O)[C@@H](NC(=O)CCc2ccccc2)CCCNC1=O |  | C57BL/6J mice, spinal cord | intravenous, 1 mg/kg, two-compartment model |  | apparent total clearance (CL/F) | 1.63 ng/(min·ng/g)

Excerpt of the above:
SMILES | assay | system | conditions | scale | endpoint | result
O=C(O)c1cccc(S(=O)(=O)Nc2ccccc2)c1 |  | human, moderate liver dysfunction, plasma | intravenous, 400 mg/m^2 belinostat, cycle 1 day -7, geometric mean | baseline: metabolite over belinostat | AUC(0-inf) metabolic ratio | 0.916
CC(C)(C)NCC(SS(=O)(=O)O)c1ccccc1 (stereo not drawn) |  | female Swiss mouse, plasma | intravenous, 15 mg/kg |  | C0 | 37200 ng/mL
NC[C@@H](C(=O)Nc1ccc(-c2cn[nH]c2)cc1)c1ccccc1 | OECD 405 eye irritation | New Zealand White rabbit, eye | topical, 0.1%, 97 h (day 5), scale 0 to 4 | direction not given | chemosis score | 0
CC(=O)N[C@H](CCCCN)C(=O)N[C@H](CC(C)C)C(=O)N[C@H](CCCCN)C(=O)N[C@H](CO)C(=O)N[C@H](CC(C)C)C(=O)N[C@H](CC(C)C)C(=O)N[C@H](CCCCN)C(=O)N[C@@H](C(=O)N[C@H](CC(C)C)C(=O)N[C@H](CO)C(=O)N[C@H](CCCCN)C(=O)N[C@H](C)C(=O)N[C@H](CCCCN)C(=O)N[C@H](CCCCN)C(=O)N[C@H](CCCCN)C(=O)N[C@H](CC(C)C)C(=O)N[C@H](CC(C)C)C(=O)N[C@H](CCCCN)C(=O)N[C@@H](C(=O)N[C@H](C)C(=O)N[C@H](CC(C)C)C(=O)N[C@H](CCCCN)C(=O)N[C@H](C)C(=O)N[C@H](CC(C)C)C(=O)N[C@H](CO)C(=O)N[C@H](CCCCN)C(N)=O)[C@H](C)O)[C@H](C)O | circular dichroism | benign buffer | pH 7.0, 5 °C | baseline: 50% trifluoroethanol | helical content | 11%
CCCC[C@H](NC(=O)CNC(=O)CNC(=O)CN1CCN(CC(=O)O)CCN(CC(=O)O)CC1)C(=O)N[C@H]1CC(=O)NCCCC[C@@H](C(N)=O)NC(=O)[C@H](Cc2c[nH]c3ccccc23)NC(=O)[C@H](CCCNC(=N)N)NC(=O)[C@@H](Cc2ccccc2)NC(=O)[C@H](Cc2c[nH]cn2)NC1=O [gallium-67 labelled] |  | C57 mice, female, B16/F1 melanoma, tumour over blood | intravenous, 0.037 MBq, 2 h |  | tumour to tissue uptake ratio | 62.9
